Published values from different studies.
A part holds a random share of what one study measured. Changes are numbered by the printed parent chain.

Block 1 — technique: protein binding microarray; form: double-stranded DNA, one strand shown; matrix: in vitro; concentration: not given; reference: not given; direction: higher = stronger binding
Target: Histone acetyltransferase KAT6A, winged helix 2, GST fusion (KAT6A, Homo sapiens, UniProt Q92794, residues 85-181)
Notes: 8-mer, flanks averaged, mean of 2 arrays, mostly near background
Target sequence (chain): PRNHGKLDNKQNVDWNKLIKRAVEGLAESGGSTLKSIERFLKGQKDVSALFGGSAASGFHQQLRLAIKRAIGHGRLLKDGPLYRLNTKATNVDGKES
Sequence	E-score
CTGATTCA	0.0239
GCGCCCCC	0.117
AATTCCGG	0.114
CTAGCGAG	-0.0234
CGCGTATC	-0.0979
ATTCAGCG	-0.0309
CAGACCGG	0.0483
AGGGAAAT	-0.0458
AGACGAGG	-0.0147
GTACACCA	-0.195
TAGGTAGA	-0.0675
GTGTGAAC	0.0286
TACTATGA	0.0274
AAATTCTA	0.125
AAGGCTGG	-0.0167
CAGCAAAC	0.147
CGCGGCGA	0.238
CGATCCGA	0.152
AAATTAAG	0.0072
GGTATAAA	0.0846
GCAAAGAA	0.111
AAACTGTA	0.0248
CACACTGA	-0.06
GAGAGCGA	0.0839
ATATACCA	-0.2

Block 2 — technique: RNA Bind-n-Seq; form: RNA; matrix: in vitro; concentration: 365 nM; reference: no-protein control; direction: higher = stronger binding
Target: RNA binding protein fox-1 homolog 2, RRM domain, GST-SBP tag (RBFOX2, Homo sapiens, UniProt O43251-10, residues 100-194)
Notes: natural RNA segment, single round, ends assumed
Shared flanks, not repeated: GGGAGUUCUACAGUCCGACGAUC … UGGAAUUCUCGGGUGCCAA
Target sequence (chain): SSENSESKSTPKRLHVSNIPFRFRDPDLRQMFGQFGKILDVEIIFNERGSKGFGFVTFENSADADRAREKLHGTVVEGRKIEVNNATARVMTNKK
Sequence	RBNS enrichment (R)
CUCCUGGCCUCAGGAUCUCCCUGGGGCAGGAAGUGGGUGGACUUGGAGGAGGAACGGCAAGGGCCGGUCCCCACACUCUUGCUCCUCCUGGGCAUCUGGGGACAGGAACA	0.237
GUAUAAAAAUGUGUAUACCAAUUUGGGAAUAGGGGAACCCAGUCAUGGAUGGAUAAUAAGCCAAGUCUUGAAUCAUUCCUAUCAAGAUUAGUAUACAUGAGGAAGAGGUG	0.517
AUGACAAUGACAAGGAAAGCGAUGUGGAGAUUUAAGAGUGGCUUGGGAUGCUGUGUCCCAAGGAAUUUCUUUUCACCUCUUGGUUGGGCUGGAGGGAAAAGGAGUGGCUC	0.747
ACCAAAUCUACCCUCCACGGCCCUGAGGCCUUAUCAGUUCCACUGAUUAAAAACUUUCUCUUCCACGGACUUUAAGCCCGGUAGGAAAGAGAGAGGAGGAGGGGGAAAGA	0.253
CCGGCCUACCCACCCCACUCUACAGCCCCUCCAACCUCAAGGCACUUCGGGGACUCAGACGGGGGAGAUCCGGGCCAGUAGCUCCCAUGCCACCUGACUGACAGACGCCU	0.593
UAGAUGGUAUAACAUUUGAAAAUAUUGUCUUAUGUGAUUUUUUCCCCUGAAAAUAUUUGCUUGUAAAUGAAAACUUAGCUAGGGCUUAAAUAAACAUGUUGCUAUGAAAU	1.79
GUGUUUGGUGCUGACACUCUGAACCCAAAACCAGGGAUCUCUGACAGGCUUGCCUGGCCCCAGGGACACUACUGCUACUGUAGCUGUGGCAGGGACCAACCAGGCUGCCU	0.206
UAGGGCUAUGACUAAUAUUUCAGGCCAUUUCCGGUGAAAGAAACUUAGUUUUACAAGAAAAACCAUUUGCUACUGAAUGCUUAAACUAAUUUUAGUGUUUAAUGUUACAU	0.536
AAUGCCCUGUCUGCUUGUCACCCUCUGAAUCUUCUUGAGCUACAGGUAGUGUUUUCAGUACCAUCAUCACUUCUGUCACUCACAGCAUAAUUGUGGAAGCAGAUUCAUUG	0.635
GCCUCCCACUCCCACACUUCUUUGCCUAUAAAUCUUCCUAGCAGCAAUUUGAGCUACCUGAGGAGGAGGCAGGGCAGAAAGGGCGAGGGCCUGCCUCUGACCUGCCGUGU	0.82
UGCUUUAAAAAAAAAAAUUUUUUUUUUUUAACGAAUUGCUGUUCUGUCCAGAGGUUUUUAAAACUGGUGCAUUCACAGCAAAAAGGGAUUCUGUAGCUUUAACUUGUAAA	0.685
UUAAAACAGUAGCUAUAGCCAUUAACCAAAGGACAGAUGAUAUAUAUAUAUAUGAUAUAUAUAUAUAUAUAAGUUCUUUUUUAGCUGUACCUACGUACUUAUAUCAGCAC	1.16

Block 3 — target: CCNA2, cyclin fold, Cln2 fusion (human); technique: yeast growth competition, sequencing; matrix: yeast; notes: strong parent motif; reference: not given; direction: higher = stronger binding
Starting sequence: RBL1 docking peptide (human); GSAKRRLFGEDPP
Substitution	normalised enrichment score
F8R	0.469
F8P	0.827
E10L	5.58
E10K	5.23
E10H	5.66
F8N	1.17
F8K	1.14
E10W	4.83
R6E	3.34
G9I	6.81
R5Y	0.459
L7C	0.604
P12G	5.25
D11T	5.7
F8E	-0.568
R6T	2.28
F8Y	1.81
E10C	5.73
L7W	1.21
A3S	4.38
A3R	1.95
G9K	6.05
K4C	4.29
D11V	5.07
G1K	6.46

Block 4 — technique: protein-binding microarray; form: hairpin DNA; matrix: in vitro; concentration: not given; reference: not given; direction: higher = stronger binding
Target: Homeobox protein Hox-B13, full length (HOXB13, Homo sapiens, UniProt Q92826, residues 1-284)
UniProt Q92826, sequence (whole entry, looked up): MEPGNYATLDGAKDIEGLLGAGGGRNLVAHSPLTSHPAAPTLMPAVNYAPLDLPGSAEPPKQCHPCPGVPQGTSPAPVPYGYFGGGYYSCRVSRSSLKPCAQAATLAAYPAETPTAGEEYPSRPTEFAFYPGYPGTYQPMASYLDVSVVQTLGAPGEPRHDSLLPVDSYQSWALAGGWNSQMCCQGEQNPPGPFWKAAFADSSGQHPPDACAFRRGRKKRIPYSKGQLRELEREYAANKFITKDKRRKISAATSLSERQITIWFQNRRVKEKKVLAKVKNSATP
Notes: whole hairpin DNA, median over replicate spots
Sequence	median fluorescence
GAGGCCGTTTTACGAGGGCCTCCTGGCCCTCGTAAAACGGCCTCACACTC (5mC at 29)	4590 a.u.
GAGGCCGTTTTACGGGGGCCTCCTGGCCCCCGTAAAACGGCCTCACACTC (5mC at 30)	5370 a.u.
GAGGCCGCTTTATTGGGGCCTCCTGGCCCCAATAAAGCGGCCTCACACTC	4550 a.u.
GAGGCCCTTTTACGAGGGCCTCCTGGCCCTCGTAAAAGGGCCTCACACTC (5mC at 7)	4670 a.u.
GAGGCCGTCGTATTGGGGCCTCCTGGCCCCAATACGACGGCCTCACACTC	4060 a.u.
GAGGCCGTTTTACGAGAGCCTCCTGGCTCTCGTAAAACGGCCTCACACTC	5090 a.u.
GAGGCCGTTGTATTGGGGCCTCCTGGCCCCAATACAACGGCCTCACACTC	4030 a.u.
GAGGCCGTTTGATTGGGGCCTCCTGGCCCCAATCAAACGGCCTCACACTC (5mC at 34)	4270 a.u.
GAGGCCGTCGTATTGGGGCCTCCTGGCCCCAATACGACGGCCTCACACTC (5mC at 9 35)	4120 a.u.
GAGGCCCGTTTATTGGGGCCTCCTGGCCCCAATAAACGGGCCTCACACTC (5mC at 7 37)	4620 a.u.
GAGGCCGTTTTATTAGGGCCTCCTGGCCCTAATAAAACGGCCTCACACTC	4800 a.u.
GAGGCCGCTTTACGAGGGCCTCCTGGCCCTCGTAAAGCGGCCTCACACTC	5040 a.u.
GAGGCCGTTTTACCGGGGCCTCCTGGCCCCGGTAAAACGGCCTCACACTC (5mC at 30)	4360 a.u.
GAGGCCGTTTTACGACGGCCTCCTGGCCGTCGTAAAACGGCCTCACACTC	4460 a.u.
GAGGCCGTTTTCGGAGGGCCTCCTGGCCCTCCGAAAACGGCCTCACACTC (5mC at 32)	3930 a.u.
GAGGCCGTTTTACAAGGGCCTCCTGGCCCTTGTAAAACGGCCTCACACTC	4700 a.u.
GAGGCCGTTTTACGAGTGCCTCCTGGCACTCGTAAAACGGCCTCACACTC	5110 a.u.
GAGGCCGTTTTATTGAGGCCTCCTGGCCTCAATAAAACGGCCTCACACTC	4690 a.u.
GAGGCCGTTTTCTTGGGGCCTCCTGGCCCCAAGAAAACGGCCTCACACTC	3700 a.u.
GAGGCCGTTTCGCGAGGGCCTCCTGGCCCTCGCGAAACGGCCTCACACTC (5mC at 11)	4040 a.u.
GAGGCCCGTTTATTGGGGCCTCCTGGCCCCAATAAACGGGCCTCACACTC	4660 a.u.
GAGGCCGTTTTACGATGGCCTCCTGGCCATCGTAAAACGGCCTCACACTC	4680 a.u.
GAGGCCGTCGTACGAGGGCCTCCTGGCCCTCGTACGACGGCCTCACACTC	3960 a.u.
GAGGCCGTGTTATTGGGGCCTCCTGGCCCCAATAACACGGCCTCACACTC (5mC at 36)	4260 a.u.
GAGGCCGTTTTACGAGGGCCTCCTGGCCCTCGTAAAACGGCCTCACACTC (5mC at 38)	5490 a.u.

Block 5 — technique: RNA Bind-n-Seq; form: RNA; matrix: in vitro; concentration: 100 nM; reference: input RNA pool; direction: higher = stronger binding
Target: RING finger protein unkempt homolog, zinc fingers 1-6, SBP tag (UNK, Homo sapiens, UniProt Q9C0B0, residues 30-357)
UniProt Q9C0B0, sequence (30-357, looked up): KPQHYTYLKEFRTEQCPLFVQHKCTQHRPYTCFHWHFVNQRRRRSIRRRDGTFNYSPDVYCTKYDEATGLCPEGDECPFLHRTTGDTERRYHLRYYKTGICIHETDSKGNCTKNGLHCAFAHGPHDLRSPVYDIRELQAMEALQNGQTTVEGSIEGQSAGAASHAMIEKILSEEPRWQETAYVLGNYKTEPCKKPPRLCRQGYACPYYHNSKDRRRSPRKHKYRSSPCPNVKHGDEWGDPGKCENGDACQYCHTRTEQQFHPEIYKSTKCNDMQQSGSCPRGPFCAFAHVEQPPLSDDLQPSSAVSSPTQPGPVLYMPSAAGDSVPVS
Notes: RNA with constant flanks, vertebrate orthologous sites, ends assumed
Shared flanks, not repeated: GGGAGUUCUACAGUCCGACGAUC … CAACAGAGGAUUGAGCAUCA
Sequence	bound/input enrichment [ratio]
UAUAAUUAUGAAAAUCUAAAGGAUUUUUAAUGUUUAAUUUCCCCCAGCAUCUAUAGUAAGACCUCUUUUUUCCAGGCAGAUCAUUCAGAGUGUGCGAGUGUGUGUGCACAUGUUACAAAG	0.676
CCAGUCUUCCACAUGGGGUCAGCCUCAAAUCUAUAGGAUUUUUGACAAAUGUAUUAUAUCUAGUUGUGUUGAAUUUAGUAUUUUUUUAUUAGCCUGUAAAUAAAGAUGGCCUCUCCUACA	2.16
UUCAGUCCCCUGGGCCGGGACAGAUUUUUUUAACGUCUUGAAACUUAAACUCUGUGCUUGUAGGAGACUGUAACCUUUUUGUCUUUUUUUUUUUUAAACAAACAACCUCCAUCUCCAGUG	0.811
UAUUAGUGUCGUACCAGCCUCUUAACCUCUUGUCUGUGCACAGCUUCAAAUGUUACUGUCUAGUUAGAUUUUUAUUUAAAAUAUGAAAAACUGCUUUUCCCAAGACGUUUUUUAAAAACA	1.79
CCCACCACUCCUGGGUGCAUGACUGCGGGGGAAGCAUCCACCAGUGCUGCGAGGGGUCUGUGGUAUUGUUUUGCUGCCUCAGUCCCCAGAGCCUUCGAGCAGAAGUGGCAAUACACUGUU	0.444
UACCUCCUGAACUUCUAGCUUUCAAGUUGUGGCUGUUUUUUGUUUUUGUUUUCUUUUCUUUAGAAUUUUUCCCUGUUUCCCACCUUCUCUUCCCCUGUUGCCAAGGUCUAACUCAUGGAU	1.68
UGUUUUCUUUUUGUAGGUAUCAUUGCCCAAUGCCCAAGAUUUUUUAUGUUCAGUUGACUGUAGGAAAUAAUGAAUUCUUUGGUGAAGGGAAGACUCGACAAGCUGCCAGACACAAUGCUG	0.69
AGGGAGAAGAGCUCACAAACUCAAAGGAAAACUAGUAAAGAGUUUCUAAUAGUUAAAAGCUAGGAAAGAUUAGGACGACUUUACAAAUGAGCAAUUAAAAAUAAAACAAAAGAAAAAGGA	0.987
UCAGUCCCCUGGGCCGGGACAGAUUUUUUUUAAUGUCUUGAGACUUAAACUCUGUGCUUAGAGGAGACUGUAACCUUUUUGUCUUUUUUUUUUUUUUUUUUUUAAACAAACAACUUCCAC	1.72
CUAUAUGUAGAAAAACAAUUUUCACUGAAGCCAUUGUCAAGUUUUCCCCCUAGAAUUUUAUUAGGAGCUCUUUAAUUUUAUACAAGCUUGCUGUGUUGGUCAUCAUUUCUCCACAGUUAA	0.849
AUUGUAUGUAGAGAAAAAAAUUUUCAUUGACCCCAUUGUGAAAUUCUCUAGCAAUUUAUUUAGAAUCUUCAUUUUUCUCAUUCAAGCUCACUGUAUUAGUUAUUUUUAGCCCAUAAUUAA	2.51

Excerpt of the above (block 3):
Substitution	normalised enrichment score
E10C	5.73
A3R	1.95
F8N	1.17
E10K	5.23
F8P	0.827
K4C	4.29
F8Y	1.81
G9I	6.81
R5Y	0.459
F8E	-0.568
G1K	6.46
